Experimental data of several laboratories.
Every numbered part comes from another study and shows a few of its results, in no order. Values joined by “and” are separate records of one study, mostly repeats; a detail may differ.
Chain of UniProt P51957 (whole entry, looked up): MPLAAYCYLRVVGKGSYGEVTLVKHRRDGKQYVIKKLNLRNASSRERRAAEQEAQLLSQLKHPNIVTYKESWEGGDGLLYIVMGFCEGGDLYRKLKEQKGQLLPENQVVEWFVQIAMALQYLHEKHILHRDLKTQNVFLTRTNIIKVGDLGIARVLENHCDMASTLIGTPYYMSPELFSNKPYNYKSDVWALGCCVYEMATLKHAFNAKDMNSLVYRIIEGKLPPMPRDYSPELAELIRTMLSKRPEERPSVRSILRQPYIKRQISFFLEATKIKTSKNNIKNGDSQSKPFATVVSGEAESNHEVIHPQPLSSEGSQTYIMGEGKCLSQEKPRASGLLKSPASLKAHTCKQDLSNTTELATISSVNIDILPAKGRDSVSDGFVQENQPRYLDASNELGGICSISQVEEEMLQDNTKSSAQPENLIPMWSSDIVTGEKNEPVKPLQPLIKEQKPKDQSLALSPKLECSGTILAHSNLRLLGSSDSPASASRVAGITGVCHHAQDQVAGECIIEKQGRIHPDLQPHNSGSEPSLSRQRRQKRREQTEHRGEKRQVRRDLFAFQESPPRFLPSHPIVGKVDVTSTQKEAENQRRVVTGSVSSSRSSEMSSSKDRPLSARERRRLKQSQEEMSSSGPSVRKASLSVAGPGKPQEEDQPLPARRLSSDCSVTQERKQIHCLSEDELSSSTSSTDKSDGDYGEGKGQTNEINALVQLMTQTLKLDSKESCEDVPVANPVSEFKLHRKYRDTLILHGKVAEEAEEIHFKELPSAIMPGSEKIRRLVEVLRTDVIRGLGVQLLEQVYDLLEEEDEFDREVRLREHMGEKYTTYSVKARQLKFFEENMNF
Chain of UniProt P52564 (whole entry, looked up): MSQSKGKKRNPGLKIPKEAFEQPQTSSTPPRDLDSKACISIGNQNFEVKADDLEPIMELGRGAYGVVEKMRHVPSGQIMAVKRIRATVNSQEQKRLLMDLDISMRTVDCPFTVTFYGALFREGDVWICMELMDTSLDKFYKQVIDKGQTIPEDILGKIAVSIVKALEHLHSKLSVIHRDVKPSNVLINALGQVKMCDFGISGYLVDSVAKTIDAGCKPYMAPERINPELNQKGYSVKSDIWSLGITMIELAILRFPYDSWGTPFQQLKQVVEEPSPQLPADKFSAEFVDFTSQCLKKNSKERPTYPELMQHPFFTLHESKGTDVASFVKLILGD
Chain of UniProt Q56UN5 (whole entry, looked up): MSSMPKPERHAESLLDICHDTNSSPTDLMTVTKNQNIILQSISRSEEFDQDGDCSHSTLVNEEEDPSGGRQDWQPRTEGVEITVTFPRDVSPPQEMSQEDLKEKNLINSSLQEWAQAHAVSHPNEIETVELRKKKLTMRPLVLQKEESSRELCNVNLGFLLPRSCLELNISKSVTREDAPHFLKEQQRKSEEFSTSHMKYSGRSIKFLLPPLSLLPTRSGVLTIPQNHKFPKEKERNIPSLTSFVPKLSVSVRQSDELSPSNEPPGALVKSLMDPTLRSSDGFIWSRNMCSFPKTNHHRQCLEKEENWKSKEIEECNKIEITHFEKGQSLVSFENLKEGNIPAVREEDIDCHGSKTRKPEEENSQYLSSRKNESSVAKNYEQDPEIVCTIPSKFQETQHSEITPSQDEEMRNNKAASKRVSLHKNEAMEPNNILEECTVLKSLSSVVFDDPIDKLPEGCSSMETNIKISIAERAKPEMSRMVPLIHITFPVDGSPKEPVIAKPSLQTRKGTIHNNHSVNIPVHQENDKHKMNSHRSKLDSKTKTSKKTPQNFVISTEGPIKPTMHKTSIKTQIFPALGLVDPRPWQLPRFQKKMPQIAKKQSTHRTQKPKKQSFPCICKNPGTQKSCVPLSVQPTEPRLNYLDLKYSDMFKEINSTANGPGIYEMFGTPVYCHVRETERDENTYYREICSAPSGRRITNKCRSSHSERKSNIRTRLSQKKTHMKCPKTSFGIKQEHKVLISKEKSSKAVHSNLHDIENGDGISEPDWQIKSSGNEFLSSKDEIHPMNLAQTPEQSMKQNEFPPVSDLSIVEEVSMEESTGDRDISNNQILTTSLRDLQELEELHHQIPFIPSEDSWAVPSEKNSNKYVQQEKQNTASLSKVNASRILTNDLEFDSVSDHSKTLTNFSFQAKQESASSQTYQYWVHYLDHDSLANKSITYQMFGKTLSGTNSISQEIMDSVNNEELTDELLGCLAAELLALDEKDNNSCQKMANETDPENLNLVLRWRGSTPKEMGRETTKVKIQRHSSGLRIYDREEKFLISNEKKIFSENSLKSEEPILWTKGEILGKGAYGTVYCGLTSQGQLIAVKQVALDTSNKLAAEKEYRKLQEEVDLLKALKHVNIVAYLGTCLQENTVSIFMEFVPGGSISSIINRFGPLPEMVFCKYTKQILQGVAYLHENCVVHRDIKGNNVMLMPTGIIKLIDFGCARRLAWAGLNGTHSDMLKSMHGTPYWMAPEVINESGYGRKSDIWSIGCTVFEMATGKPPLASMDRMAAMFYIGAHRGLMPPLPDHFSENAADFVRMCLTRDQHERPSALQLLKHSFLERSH
Chain of UniProt Q9BVS4 (whole entry, looked up): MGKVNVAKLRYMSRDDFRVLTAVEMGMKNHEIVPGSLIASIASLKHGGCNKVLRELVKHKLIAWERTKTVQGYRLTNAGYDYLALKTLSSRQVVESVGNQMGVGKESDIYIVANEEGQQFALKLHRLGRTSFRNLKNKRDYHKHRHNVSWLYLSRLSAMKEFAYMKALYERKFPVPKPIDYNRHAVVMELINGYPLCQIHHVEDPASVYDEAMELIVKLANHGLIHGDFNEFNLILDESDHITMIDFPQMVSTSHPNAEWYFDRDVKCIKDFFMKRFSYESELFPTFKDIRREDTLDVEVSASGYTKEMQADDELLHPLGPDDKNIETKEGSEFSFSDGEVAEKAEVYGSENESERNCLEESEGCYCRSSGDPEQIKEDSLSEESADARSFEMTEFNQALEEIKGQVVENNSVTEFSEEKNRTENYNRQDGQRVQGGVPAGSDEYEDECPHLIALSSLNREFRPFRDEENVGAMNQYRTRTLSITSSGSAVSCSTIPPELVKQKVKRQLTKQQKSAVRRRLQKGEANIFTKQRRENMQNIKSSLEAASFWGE
Chain of UniProt P29323 (whole entry, looked up): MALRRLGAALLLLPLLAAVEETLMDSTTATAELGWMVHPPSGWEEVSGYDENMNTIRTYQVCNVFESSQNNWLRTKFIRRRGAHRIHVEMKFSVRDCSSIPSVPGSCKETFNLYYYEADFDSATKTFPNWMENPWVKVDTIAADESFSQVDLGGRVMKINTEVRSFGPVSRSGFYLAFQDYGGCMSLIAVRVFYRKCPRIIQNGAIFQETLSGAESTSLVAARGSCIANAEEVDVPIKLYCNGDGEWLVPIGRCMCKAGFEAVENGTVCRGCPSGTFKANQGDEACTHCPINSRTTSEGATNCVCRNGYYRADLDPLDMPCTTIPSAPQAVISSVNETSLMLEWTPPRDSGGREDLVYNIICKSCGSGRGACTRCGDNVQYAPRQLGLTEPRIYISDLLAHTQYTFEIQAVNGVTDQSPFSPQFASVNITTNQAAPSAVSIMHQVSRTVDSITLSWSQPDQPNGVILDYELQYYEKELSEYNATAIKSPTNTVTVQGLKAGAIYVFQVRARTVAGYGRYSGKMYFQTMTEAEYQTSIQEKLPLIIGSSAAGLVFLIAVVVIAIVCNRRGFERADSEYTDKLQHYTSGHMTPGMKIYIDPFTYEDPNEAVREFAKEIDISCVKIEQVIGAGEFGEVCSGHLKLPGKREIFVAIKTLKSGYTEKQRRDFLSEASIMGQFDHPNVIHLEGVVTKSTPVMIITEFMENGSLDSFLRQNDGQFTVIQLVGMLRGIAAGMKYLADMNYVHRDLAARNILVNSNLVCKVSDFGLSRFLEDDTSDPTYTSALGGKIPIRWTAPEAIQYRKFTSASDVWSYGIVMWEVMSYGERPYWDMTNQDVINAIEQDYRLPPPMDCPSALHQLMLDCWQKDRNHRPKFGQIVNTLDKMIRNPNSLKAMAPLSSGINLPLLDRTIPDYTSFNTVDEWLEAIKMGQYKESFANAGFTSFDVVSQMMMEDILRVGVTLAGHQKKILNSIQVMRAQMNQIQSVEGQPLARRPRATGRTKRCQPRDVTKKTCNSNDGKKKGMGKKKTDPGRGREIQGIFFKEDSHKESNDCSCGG
Chain of UniProt P41743 (whole entry, looked up): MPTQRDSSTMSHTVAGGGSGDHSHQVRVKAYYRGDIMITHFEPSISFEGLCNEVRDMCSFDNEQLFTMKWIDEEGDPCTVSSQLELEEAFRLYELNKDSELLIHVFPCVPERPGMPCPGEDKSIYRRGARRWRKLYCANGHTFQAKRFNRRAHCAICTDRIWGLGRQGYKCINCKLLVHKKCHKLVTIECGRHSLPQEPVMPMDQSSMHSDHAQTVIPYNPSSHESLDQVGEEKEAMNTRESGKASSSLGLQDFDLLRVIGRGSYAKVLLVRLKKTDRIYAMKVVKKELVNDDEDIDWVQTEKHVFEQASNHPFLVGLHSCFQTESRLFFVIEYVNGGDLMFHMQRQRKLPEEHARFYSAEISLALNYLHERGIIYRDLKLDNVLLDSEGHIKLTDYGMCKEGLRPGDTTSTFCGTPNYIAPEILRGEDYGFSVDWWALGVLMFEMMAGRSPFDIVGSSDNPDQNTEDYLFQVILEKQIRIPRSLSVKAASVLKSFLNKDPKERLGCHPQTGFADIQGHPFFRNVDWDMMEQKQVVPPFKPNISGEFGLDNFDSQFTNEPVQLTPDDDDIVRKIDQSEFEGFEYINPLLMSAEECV
Chain of UniProt P53778 (whole entry, looked up): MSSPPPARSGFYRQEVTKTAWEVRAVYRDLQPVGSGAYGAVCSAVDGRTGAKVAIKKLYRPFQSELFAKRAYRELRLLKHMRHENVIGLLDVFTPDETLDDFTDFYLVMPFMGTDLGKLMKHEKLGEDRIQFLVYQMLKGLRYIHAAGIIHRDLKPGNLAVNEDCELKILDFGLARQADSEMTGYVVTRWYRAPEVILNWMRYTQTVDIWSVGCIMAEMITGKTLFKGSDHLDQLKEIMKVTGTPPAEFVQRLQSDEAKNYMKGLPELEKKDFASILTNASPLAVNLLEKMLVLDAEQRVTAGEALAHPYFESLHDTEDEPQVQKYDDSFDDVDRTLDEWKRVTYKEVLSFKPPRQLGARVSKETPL

Sample 1
Structure (SMILES): C[C@@H](c1cccc(C#N)c1)n1cc(Cl)cc(C(N)=O)c1=N
Observed: cell-free assay
Method: competition with immobilised ligand
Tested at: 1 µM
Measurement: remaining binding
ITK (Homo sapiens, UniProt Q08881): 82%
CDK8 (Homo sapiens, UniProt P49336): 92%
Ribosomal protein S6 kinase alpha-6, C-terminal kinase domain (RPS6KA6, Homo sapiens, UniProt Q9UK32): 100%
Ribosomal protein S6 kinase alpha-3, C-terminal kinase domain (RPS6KA3, Homo sapiens, UniProt P51812): 86%
MAP3K19 (Homo sapiens, UniProt Q56UN5): 94%
PAK5 (Homo sapiens, UniProt Q9P286): 97%
FLT3 (Homo sapiens, UniProt P36888, K663Q): 92%
MAP4K1 (Homo sapiens, UniProt Q92918): 96%
BMP2K (Homo sapiens, UniProt Q9NSY1): 93%
RIOK2 (Homo sapiens, UniProt Q9BVS4): 83%
DSTYK (Homo sapiens, UniProt Q6XUX3): 87%
EPHB2 (Homo sapiens, UniProt P29323): 80%
Aurora kinase C (AURKC, Homo sapiens, UniProt Q9UQB9): 96%
OXSR1 (Homo sapiens, UniProt O95747): 93%
HASPIN (Homo sapiens, UniProt Q8TF76): 100%

Sample 2
SMILES: Cc1cc(Nc2nc(-c3ccccc3)nc3ccccc23)n[nH]1
Observed: enzyme activity
Mode: inhibitor
Tested at: 0.5 µM
Relative to: control
Measurement: remaining activity
LRRK2 (Homo sapiens, UniProt Q5S007): 88.3%
MAP4K2 (Homo sapiens, UniProt Q12851): 45.3%
PRKG1 (Homo sapiens, UniProt Q13976): 97.3%
PLK2 (Homo sapiens, UniProt Q9NYY3): 110%
PRKCI (Homo sapiens, UniProt P41743): 82.6%
CSNK2A1 (Homo sapiens, UniProt P68400): 27%
MKNK2 (Homo sapiens, UniProt Q9HBH9): 71.8%
Cyclin-dependent kinase 9, with cyclin T1 (CDK9, Homo sapiens, UniProt P50750): 89.1%
EPHA5 (Homo sapiens, UniProt P54756): 90.6%
CSNK1A1 (Homo sapiens, UniProt P48729): 94.6%
BTK (Homo sapiens, UniProt Q06187): 43.4%
MAP2K6 (Homo sapiens, UniProt P52564): 93.2%
LYN (Homo sapiens, UniProt P07948): 79.9%
IRAK4 (Homo sapiens, UniProt Q9NWZ3): 93.2%
MAPK13 (Homo sapiens, UniProt O15264): 106%
MAP3K10 (Homo sapiens, UniProt Q02779): 75.4%
MAPK12 (Homo sapiens, UniProt P53778): 86.8%
NEK4 (Homo sapiens, UniProt P51957): 95%
AKT3 (Homo sapiens, UniProt Q9Y243): 95.5%
KIT (Homo sapiens, UniProt P10721): 40.8%
PRKCD (Homo sapiens, UniProt Q05655): 91.3%
CHEK1 (Homo sapiens, UniProt O14757): 69.1%

Sample 3
Cell line: mouse MPNST tumor cells
Method: high-content nuclear imaging
Item: cell number
Tested at: 10 µM
Time: 12 h
Notes: mean of 2 replicates
Relative to: plate mean
Reading: higher = more cells
Measurement: nuclei count
O=C1Nc2ccc(Cl)cc2[C@@](C#CC2CC2)(C(F)(F)F)O1: 1.69 z-score and -0.791 z-score
COC(=O)c1c(C)[nH]c(C)c1C(=O)c1ccccc1Cc1ccccc1: 1.24 z-score
C=C1c2cccc(O)c2C(O)=C2C(=O)[C@]3(O)C(O)=C(C(N)=O)C(=O)[C@@H](N(C)C)[C@@H]3[C@@H](O)[C@H]12: 2.4 z-score
Cn1c(=O)c2c(ncn2CCO)n(C)c1=O: 0.749 z-score
O=C(CC1CC(c2ccc(F)cc2F)=NO1)N1CCOCC1 (stereo not drawn): 0.0515 z-score
O=C1c2ccccc2S(=O)(=O)N1CCCCN1CCN(c2ncccn2)CC1: -0.0709 z-score
CCCCn1c(=O)c2[nH]c(C34CC5CC(CC3C5)C4)nc2n(CCCO)c1=O: 4.89 z-score
COc1ccccc1CNC(=O)CCn1c(=O)[nH]c2ccsc2c1=O: 1.22 z-score
CC(=O)OCC(=O)[C@@]1(OC(C)=O)[C@@H](C)C[C@H]2[C@@H]3C[C@H](F)C4=CC(=O)C=C[C@]4(C)[C@@]3(F)[C@@H](O)C[C@@]21C: 2.22 z-score
COc1ccc(Br)cc1S(=O)(=O)NC(=O)/C=C/c1ccccc1Cc1ccc2ccccc2c1: 2.02 z-score

Sample 4
Species: mouse
Sample: microsomes or S9
Tested at: 2 µM
Time: 0.5 h
Measurement: remaining compound
CCOc1cc(C(=O)Nc2[nH]nc(C)c2-c2ccc(OC)c(OC)c2)cc(OCC)c1OCC: 0.896%
COCCc1noc(CN2CC[C@H]3[C@H](C2)OCc2cnnn23)n1: 96.9%
O=C1C2CC=CCC2C(O)=NN1c1cccc(F)c1 (stereo not drawn): > 99.9%
COc1ccc(-n2ccc3cc(NC(=O)N4CCOCC4)ccc32)cc1Cl: 83.9%
Cc1ccc(S(=O)(=O)N2CCCC(C(=O)Nc3ccc4[nH]c(C5CCCO5)nc4c3)C2)s1 (stereo not drawn): 31%
CCOC(=O)c1[nH]c(C)c(C(=O)CN(CC(C)C)C(=O)CC)c1C: 0.0742%
COc1cccc(Nc2ccc(-n3ccnc3)nn2)c1: 96.2%
Cn1ncc2cc(NC(=O)N3C[C@H]4CC=CC[C@H]4C3)ccc21: 67.3%
NCCN(C1CCOCC1)S(=O)(=O)c1ccc(C2CCCCC2)cc1: 55%
COc1ccc([C@@H](C)NC(=O)COc2c(C)ccc(C)c2C)cc1: 0.73%

A few entries again (sample 2):
Cyclin-dependent kinase 9, with cyclin T1 (CDK9, Homo sapiens, UniProt P50750): 89.1%
EPHA5 (Homo sapiens, UniProt P54756): 90.6%
CSNK1A1 (Homo sapiens, UniProt P48729): 94.6%
BTK (Homo sapiens, UniProt Q06187): 43.4%
MAP2K6 (Homo sapiens, UniProt P52564): 93.2%
LYN (Homo sapiens, UniProt P07948): 79.9%
IRAK4 (Homo sapiens, UniProt Q9NWZ3): 93.2%
MAPK13 (Homo sapiens, UniProt O15264): 106%
